Assay results of several laboratories.
Every numbered part comes from another study and shows a few of its results, in no order.

Series 1 — technique: protein-binding microarray; molecule type: double-stranded DNA, one strand shown; medium: in vitro; concentration: 0.8 µM; notes: whole 60-bp probe, no competitor; reading: higher = stronger binding
Target: Centromere-binding protein 1, full length, N-terminal tag (CBF1, Saccharomyces cerevisiae, UniProt P17106, residues 1-351)
UniProt P17106, sequence (whole entry, looked up): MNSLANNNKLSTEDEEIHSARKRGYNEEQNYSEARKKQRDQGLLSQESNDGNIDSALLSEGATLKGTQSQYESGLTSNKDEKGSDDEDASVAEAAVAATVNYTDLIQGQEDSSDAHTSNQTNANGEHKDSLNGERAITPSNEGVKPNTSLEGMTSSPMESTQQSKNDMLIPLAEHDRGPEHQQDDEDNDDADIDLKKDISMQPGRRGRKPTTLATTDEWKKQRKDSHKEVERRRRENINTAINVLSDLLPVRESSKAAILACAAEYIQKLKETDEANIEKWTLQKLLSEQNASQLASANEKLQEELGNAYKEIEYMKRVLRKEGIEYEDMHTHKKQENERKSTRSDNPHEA
| Oligonucleotide | fluorescence intensity |
| --- | --- |
| GAAAGGTGAGTTCATCATCAGTGATCGGACGTATAGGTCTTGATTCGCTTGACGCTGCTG | 517 a.u. |
| CCTAACTACTATACCAGTGTGACATAGCTTCGTACAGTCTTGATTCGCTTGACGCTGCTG | 578 a.u. |
| CTAAATCGCATACTCCACGTGAGAACAAGAAAATTCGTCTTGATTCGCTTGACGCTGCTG | 1920 a.u. |
| CTAGGAGCATCCAGTCTCACCTGGGTTGGCTCTTTCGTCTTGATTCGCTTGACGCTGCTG | 456 a.u. |
| GAAAAAAATGTTCAGCACGTTGATCTTGAAAGCTAGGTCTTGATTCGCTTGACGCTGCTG | 615 a.u. |
| CTACCTTGGCGGTTTCACCAGACAACATAACACTTCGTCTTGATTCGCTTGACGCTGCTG | 510 a.u. |

Series 2 — technique: protein-binding microarray; molecule type: double-stranded DNA, one strand shown; medium: in vitro; concentration: 250 nM; notes: 60-bp whole probe; added: salmon DNA 0.4 mg/ml; reference: random background probes; reading: higher = stronger binding; constant ends, left off below: GCCTAGCAC … GTCTTGATTCGCTTGACGCTGCTG
Target: Interferon regulatory factor 5, full length, phosphomimetic (IRF5, Homo sapiens, UniProt Q13568-2, residues 1-514, K96S/S451D/S453D/S456D/S462D)
| Oligonucleotide | log fluorescence |
| --- | --- |
| GACGAACTGGGGACTGGAGAAGTGCTA | -0.352 z-score |
| TGGAGTCTCTGTTCTTTTCAGTGCTAG | 0.718 z-score |
| TCATTTCTACTTCTGTTACTGTGCTAG | 1.83 z-score |
| TACGATTTCAGTTTCGAGACGTGCTAG | 7.26 z-score |
| GACGGTTTCCTTCTCTTGACGTGCTAG | 1.11 z-score |
| CTCGGGACAGGCACTCTACGGTGCTAG | -0.652 z-score |

Series 3 — technique: universal PBM; molecule type: double-stranded DNA, one strand shown; medium: in vitro; concentration: 600 nM; reading: higher = stronger binding
Target: Sal-like protein 4, full length isoform A (SALL4, Homo sapiens, UniProt Q9UJQ4, residues 1-1053)
UniProt Q9UJQ4, sequence (whole entry, looked up): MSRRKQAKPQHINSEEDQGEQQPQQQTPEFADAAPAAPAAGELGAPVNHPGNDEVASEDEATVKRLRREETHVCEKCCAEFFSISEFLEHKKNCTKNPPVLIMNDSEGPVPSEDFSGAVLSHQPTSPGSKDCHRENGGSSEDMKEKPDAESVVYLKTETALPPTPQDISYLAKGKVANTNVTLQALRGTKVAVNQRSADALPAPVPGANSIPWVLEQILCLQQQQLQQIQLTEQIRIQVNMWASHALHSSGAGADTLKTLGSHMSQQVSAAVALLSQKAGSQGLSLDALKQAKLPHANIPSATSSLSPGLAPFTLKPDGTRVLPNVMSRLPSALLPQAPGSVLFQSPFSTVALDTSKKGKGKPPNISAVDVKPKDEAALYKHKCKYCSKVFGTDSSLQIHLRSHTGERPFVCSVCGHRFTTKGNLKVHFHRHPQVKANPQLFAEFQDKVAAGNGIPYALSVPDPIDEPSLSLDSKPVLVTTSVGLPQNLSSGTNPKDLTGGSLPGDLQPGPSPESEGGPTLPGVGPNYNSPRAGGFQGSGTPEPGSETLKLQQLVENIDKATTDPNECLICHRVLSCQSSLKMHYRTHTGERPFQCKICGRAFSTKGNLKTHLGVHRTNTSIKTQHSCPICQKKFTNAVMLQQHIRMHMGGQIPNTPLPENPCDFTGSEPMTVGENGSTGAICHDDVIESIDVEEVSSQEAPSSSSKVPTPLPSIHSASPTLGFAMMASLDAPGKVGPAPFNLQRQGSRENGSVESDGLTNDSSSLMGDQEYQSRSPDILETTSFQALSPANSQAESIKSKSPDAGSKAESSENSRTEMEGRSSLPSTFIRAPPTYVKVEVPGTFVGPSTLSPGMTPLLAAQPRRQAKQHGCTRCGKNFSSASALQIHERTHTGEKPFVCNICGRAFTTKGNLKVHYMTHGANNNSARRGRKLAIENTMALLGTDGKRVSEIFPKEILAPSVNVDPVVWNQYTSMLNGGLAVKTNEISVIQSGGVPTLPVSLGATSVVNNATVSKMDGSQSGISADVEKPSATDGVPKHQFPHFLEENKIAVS
Notes: 8-mer, flanks averaged, mean of replicates
| Oligonucleotide | E-score |
| --- | --- |
| GGACGTGA | -0.171 |
| AGTTTATA | 0.358 |
| AGAATTCG | 0.0762 |
| GTGAATAA | 0.233 |
| CTAGCTCC | -0.186 |
| ATCGCGTA | -0.0196 |
| AATTTCTG | 0.281 |

Single results of other studies
| Substance | target | test | test system | conditions | scale | endpoint | result |
| --- | --- | --- | --- | --- | --- | --- | --- |
| PhoQ, residues 284 288 289 292 302 303 SACGEM | PhoP, residues 12 14 15 18 19 NHFRA (Escherichia coli, UniProt P23836) | Sort-seq, refers to: YFP reporter | E. coli | PhoQ-PhoP variant library, added: 10 µM Mg2+ | reference: high Mg2+ state, higher = stronger signaling | fold induction | 5.13 |
